Results pooled from the literature.
Parts stem from different laboratories: compare values within a part only. Changes are numbered by the printed parent chain.

Set 1 — target: CEBPB, bZIP domain (human); technique: DHFR protein complementation; matrix: yeast; reference: wild-type JUN-FOS pair; reading: higher = stronger binding
Notes: single substitutions, most at no-binding floor
Starting sequence: JUN, bZIP domain (human); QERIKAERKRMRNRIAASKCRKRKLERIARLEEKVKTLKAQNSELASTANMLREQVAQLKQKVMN; partner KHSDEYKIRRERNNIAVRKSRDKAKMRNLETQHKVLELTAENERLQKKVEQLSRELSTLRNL
| Change | binding fitness [natural log] |
| --- | --- |
| K34T | -1.37 |
| K34P | -1.5 |
| V35L | -1.19 |
| I28P | -1.26 |
| A49G | -1.53 |
| L45K | -1.44 |
| E54I | -1.43 |
| V56N | -1.33 |
| T37R | -1.38 |
| R30E | -0.907 |
| Q58R | -1.37 |
| L31I | -1.25 |
| V35A | -1.37 |
| V56E | -1.45 |
| L31C | -1.47 |
| A46H | -1.2 |
| A29Q | -1.29 |
| M51R | -1.2 |
| L38P | -1.51 |
| L31H | -1.18 |
| E33N | -1.39 |
| L52G | -1.52 |
| M51P | -1.5 |
| S47M | -1.18 |
| R53N | -1.4 |

Set 2 — technique: DHFR PCA, deep sequencing; matrix: yeast; with: (+)-ABA 0.11 µM; reference: wild-type fitted maximum; reading: higher = stronger binding
Target: ABI1, truncated, D143A, DHFR fusion (Arabidopsis thaliana)
Notes: methotrexate growth selection, single substitutions
Starting sequence: PYL1, truncated, DHFR fusion (Arabidopsis thaliana); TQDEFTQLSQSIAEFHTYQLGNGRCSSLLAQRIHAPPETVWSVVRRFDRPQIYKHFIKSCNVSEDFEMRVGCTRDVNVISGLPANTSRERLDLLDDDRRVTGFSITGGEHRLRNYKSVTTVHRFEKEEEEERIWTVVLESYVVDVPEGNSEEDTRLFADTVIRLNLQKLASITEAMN; partner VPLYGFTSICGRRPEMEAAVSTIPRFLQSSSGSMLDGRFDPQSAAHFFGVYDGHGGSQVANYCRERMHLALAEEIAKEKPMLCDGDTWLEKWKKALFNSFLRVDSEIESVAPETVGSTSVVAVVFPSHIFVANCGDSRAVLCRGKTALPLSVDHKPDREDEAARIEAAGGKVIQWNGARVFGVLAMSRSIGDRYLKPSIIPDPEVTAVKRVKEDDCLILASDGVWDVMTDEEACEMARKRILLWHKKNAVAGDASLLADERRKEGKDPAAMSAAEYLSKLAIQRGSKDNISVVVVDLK
| Change | relative binding score |
| --- | --- |
| F66L | 2.34% |
| L8C | 2.15% |
| E151F | 5.71% |
| N114K | 4.24% |
| D97A | 36.3% |
| I79K | 2.86% |
| E131K | 61.6% |
| E4S | 12.1% |
| D3F | 38.3% |
| S63G | 47.4% |
| E152F | 1.14% |
| H34Y | 30.2% |
| S117Y | -3.28% |
| D144T | 9.6% |
| N85R | 58.8% |
| Q2T | 40% |
| S11I | 28.2% |
| P83F | 8.73% |
| G102N | -3.06% |
| E89P | -4.92% |
| R132S | 60.8% |
| L164P | 7.38% |
| V40G | 2.71% |
| S63Y | -2.14% |
| I57Q | -0.846% |

Set 3 — target: CCNB1, cyclin fold, Cln2 fusion (human); technique: yeast growth competition, sequencing; matrix: yeast; notes: weak parent motif; reference: not given; reading: higher = stronger binding
Starting sequence: CDC6 docking peptide (human); TLKGRRLVFDNQL
| Change | normalised enrichment score |
| --- | --- |
| TLKGRRLAFDNQL [V8A] | -0.102 |
| TLKGRRLVFDQQL [N11Q] | -0.198 |
| TLKGRRLVFDNQM [L13M] | 0.754 |
| TLWGRRLVFDNQL [K3W] | -0.00582 |
| TLKGRRLVMDNQL [F9M] | 0.359 |
| TLKGRRWVFDNQL [L7W] | 0.045 |
| TLKGRRLVFDNQV [L13V] | 0.132 |
| TLKGRRLVCDNQL [F9C] | 0.221 |
| CLKGRRLVFDNQL [T1C] | -0.219 |
| TLKGRRLVFDSQL [N11S] | 0.242 |
| TWKGRRLVFDNQL [L2W] | -0.0568 |
| TLKGRRRVFDNQL [L7R] | 1.26 |
| TLKGRRLVFDNSL [Q12S] | -0.0331 |
| TLKGRRLVFDNQK [L13K] | -0.259 |
| TLKHRRLVFDNQL [G4H] | 0.134 |
| TLKGRRLVVDNQL [F9V] | -0.577 |
| TLKGRRLVFDNQE [L13E] | 0.389 |
| TLKFRRLVFDNQL [G4F] | 0.544 |
| TLKGRRLVFDNQD [L13D] | -0.392 |

Set 4 — technique: universal PBM; molecule type: double-stranded DNA, one strand shown; matrix: in vitro; tested at: not given; reading: higher = stronger binding
Target: Sal-like protein 4, full length isoform B (SALL4, Homo sapiens, UniProt Q9UJQ4-2, residues 1-616)
Notes: 8-mer, flanks averaged, mean of replicates
Construct (chain): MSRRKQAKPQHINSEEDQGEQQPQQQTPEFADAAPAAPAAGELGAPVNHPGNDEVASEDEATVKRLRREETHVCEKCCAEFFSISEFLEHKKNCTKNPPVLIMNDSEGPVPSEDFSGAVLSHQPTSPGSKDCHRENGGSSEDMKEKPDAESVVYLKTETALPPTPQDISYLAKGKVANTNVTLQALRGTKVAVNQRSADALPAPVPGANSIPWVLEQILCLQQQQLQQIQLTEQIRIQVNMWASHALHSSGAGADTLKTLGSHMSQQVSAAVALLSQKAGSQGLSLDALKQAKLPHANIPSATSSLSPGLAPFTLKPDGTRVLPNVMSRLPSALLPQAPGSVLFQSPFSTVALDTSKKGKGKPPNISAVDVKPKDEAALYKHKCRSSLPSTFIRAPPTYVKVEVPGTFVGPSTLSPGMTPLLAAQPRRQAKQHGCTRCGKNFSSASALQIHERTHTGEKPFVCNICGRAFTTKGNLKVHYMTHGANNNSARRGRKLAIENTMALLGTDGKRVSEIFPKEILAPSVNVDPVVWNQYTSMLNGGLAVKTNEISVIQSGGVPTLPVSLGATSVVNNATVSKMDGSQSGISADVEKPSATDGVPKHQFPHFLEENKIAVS
| Strand | E-score |
| --- | --- |
| GGAACTAA | -0.0692 |
| ACCGCACG | -0.203 |
| GAATACGA | 0.213 |
| GTCGCAGA | -0.129 |
| AAAGTGAT | 0.21 |
| GAGGTAGA | -0.143 |
| ATGGGTTC | -0.191 |
| AGGTCATC | -0.155 |
| CTGAGACC | -0.218 |
| AGGTGCTA | 0.111 |
| ACGTTTTG | 0.121 |
| AGCGGCAA | -0.184 |
| AGCGTCTG | -0.193 |
| AACTTTGT | 0.263 |
| CTTTCGAA | 0.0699 |
| CCGGGAAC | -0.265 |
| CTAATCAA | 0.115 |
| CAACCTAA | -0.0105 |
| AGGAATAC | 0.152 |
| GAAGTAAC | 0.00188 |
| CATCGCAC | -0.128 |
| GGTGTTGA | -0.035 |
| CTTGTTTC | 0.00673 |
| AGTCTTTC | -0.0393 |
| CGCGCCAG | -0.277 |

Set 5 — technique: RNA Bind-n-Seq; molecule type: RNA; matrix: in vitro; tested at: not given; notes: RNA with constant flanks, ends assumed; reference: input RNA pool; reading: higher = stronger binding
Target: RING finger protein unkempt homolog, zinc fingers 1-6, GST-SBP tag (UNK, Homo sapiens, UniProt Q9C0B0, residues 30-357)
Constant ends, left off below: GGGAGUUCUACAGUCCGACGAUC … CAACAGAGGAUUGAGCAUCA
Residues (chain): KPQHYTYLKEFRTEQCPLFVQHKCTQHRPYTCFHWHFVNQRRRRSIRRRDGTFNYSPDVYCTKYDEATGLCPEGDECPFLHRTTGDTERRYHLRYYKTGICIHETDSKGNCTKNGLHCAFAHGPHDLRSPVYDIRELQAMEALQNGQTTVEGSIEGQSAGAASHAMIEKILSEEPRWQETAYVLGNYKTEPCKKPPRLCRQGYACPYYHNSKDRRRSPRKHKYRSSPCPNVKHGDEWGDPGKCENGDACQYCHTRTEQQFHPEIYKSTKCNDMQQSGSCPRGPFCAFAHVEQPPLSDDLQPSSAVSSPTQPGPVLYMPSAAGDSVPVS
| Strand | bound/input enrichment [ratio] |
| --- | --- |
| GUCCUGAAGCUUUGUGUUUGGCUGCACCUGCAUAAGCUGCUACAAAUAGAAUAAAGAAUUCACCGCCUGUAUCUAUCAUUUAGAUGCAUGGAAAAAUGGGCUUUGCACACAAUGGGUUUG | 0.955 |
| AAAAUAAAUAAUCUCAUCCCCAAACUGUAGUAAUUGUUACAAUUUUCUAUUUAAAAAAUGAACCGUACAUGCAGAAAUUGACCUGAUUUCCAUUUGCAACAGGAAGACACUGGCUUUACA | 0.77 |
| GGAACCUGCCGGGGCAGCGGACGUUGGAAGGGCGCUGGGCCUCGGCUGGGACCGUUCAUGCCGCAGCAACCGGCGGCGGCUGCCGCAGAGCAGCGUUCGGUUUUGUUUUUAAAUUUUGAA | 0.144 |
| GUGCUGACUUGGGAUUUUUAACCUUAUAUAUCUUUUUCCUUUAUUCAAAACAAAACAAUUUUCCGCACACUGAAAAAAAAAAAAGCCAAAUGUUUUGUGCCUUUCUAAGGCAGCGCUGUA | 3.04 |
| GUUUACGAGGUCACCUCUACCAAGUACACUCGUGAUAUCUAUAAAGAGCUCCUCAUCUCCUCCGUGGCCUCACUCUUCAUGGGCUUUGGAGUCCUCUUCCUGCUGCUCUGGGUUGGCAUC | 0.161 |
| GGGUAUUUCACAAAGCCUCCACUUGUAGCUCACGCUUCAAGGUCAGCAGAAUCAAAGGUUACCGAAUUUGGAAAAUCCAAUUUCGUUCAGCCCAUGCAGGGUGAAGUAAUAAGGCCACCC | 0.0815 |
| GUAUCUAGCUUUUAAAGAACUACAUGUGUCUUUAAAAGUAUUUAUUGUGCAAAUGUACUACCGCAGUUCAUCUUCAUGUUCCAGCCUUACUCUGUGUUAAUACUGCUUCACAAUUCUGAA | 0.217 |
| UGCUGCAGGAAAAGAGAUCAUAUGGCACGGGCGGACAAAAGAAGAACCAGCUCAUUAUUGCCGUAUUUGUGAGGUGGAGGUUUUUGAUCUGCUUUUUGUCACUAAUGAGAGUAAUUCUCG | 0.1 |

For quick reference, copied from above (set 4):
| Strand | E-score |
| --- | --- |
| CTTTCGAA | 0.0699 |
| CCGGGAAC | -0.265 |
| CTAATCAA | 0.115 |
| CAACCTAA | -0.0105 |
| AGGAATAC | 0.152 |
| GAAGTAAC | 0.00188 |
| CATCGCAC | -0.128 |
| GGTGTTGA | -0.035 |
| CTTGTTTC | 0.00673 |
